# Measured values from different studies.
# Numbered parts are unrelated; each lists some results of a single study. Positions count from the first letter of the parent shown.

# Series 1
# Target: FOSL1, bZIP domain (human)
# Technique: DHFR protein complementation
# Medium: yeast
# Setting: single substitutions, most at no-binding floor
# Reference: wild-type JUN-FOS pair
# Direction: higher = stronger binding
# Starting sequence: JUN, bZIP domain (human); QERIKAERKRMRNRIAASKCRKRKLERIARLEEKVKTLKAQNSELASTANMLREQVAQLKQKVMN; partner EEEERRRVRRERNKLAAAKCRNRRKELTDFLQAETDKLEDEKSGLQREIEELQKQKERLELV
Change,binding fitness [natural log]
I28P,-1.06
A49W,-1.13
L38D,-1.29
R53L,-1.23
K34T,-0.508
V35Y,-0.526
T48H,-0.432
S43D,-0.452
T37G,-0.529
E32Y,-0.825
R30L,-0.24
E32V,-0.567
K36Q,-0.394
A57M,-0.57
A40V,-0.481
A46H,-0.501
Q58S,-0.273
K36F,-0.842
K34P,-1.41
L45Q,-1.48
Q41M,-0.604
V35G,-1.35
K34A,-0.508
V35I,-0.267
K39P,-1.36

# Series 2
# Target: ABI1, truncated, D143A, DHFR fusion (Arabidopsis thaliana)
# Technique: DHFR PCA, deep sequencing
# Medium: yeast
# Setting: methotrexate growth selection, single substitutions
# With: (+)-ABA 0.39 µM
# Reference: wild-type fitted maximum
# Direction: higher = stronger binding
# Starting sequence: PYL1, truncated, DHFR fusion (Arabidopsis thaliana); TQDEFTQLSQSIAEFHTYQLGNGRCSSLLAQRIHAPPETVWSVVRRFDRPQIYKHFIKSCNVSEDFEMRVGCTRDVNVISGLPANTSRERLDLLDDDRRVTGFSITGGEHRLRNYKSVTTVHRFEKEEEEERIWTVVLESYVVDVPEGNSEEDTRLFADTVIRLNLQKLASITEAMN
Change,relative binding score [%]
Y53D,-7.28
E67M,12.8
R111C,6.01
P83I,-1.11
S63K,45.1
V44T,-5.5
K54P,-4.17
N114I,-6.44
E131L,49.9
C72D,39.5
K116V,-0.7
E89W,7.79
R74V,-10.3
F66I,1.27
E131H,65.8
R113D,-6.3
I57T,-8.9
R49A,40.7
T119Q,15.1
K54W,-4.03
E64T,36.4
V78P,-3.77
L91H,-16.8
V100P,-4.27
N61R,61.3

# Series 3
# Target: OGT, full length, His-tagged (human)
# Technique: phage display, sequencing
# Medium: in vitro
# Tested at: 1 µg OGT
# Setting: single substitutions, 15-mer displayed peptide, unchanged parent 19.6
# Reference: input library
# Direction: higher = stronger binding
# Starting sequence: peptide; TAPFYPPAYQIQVFK; partner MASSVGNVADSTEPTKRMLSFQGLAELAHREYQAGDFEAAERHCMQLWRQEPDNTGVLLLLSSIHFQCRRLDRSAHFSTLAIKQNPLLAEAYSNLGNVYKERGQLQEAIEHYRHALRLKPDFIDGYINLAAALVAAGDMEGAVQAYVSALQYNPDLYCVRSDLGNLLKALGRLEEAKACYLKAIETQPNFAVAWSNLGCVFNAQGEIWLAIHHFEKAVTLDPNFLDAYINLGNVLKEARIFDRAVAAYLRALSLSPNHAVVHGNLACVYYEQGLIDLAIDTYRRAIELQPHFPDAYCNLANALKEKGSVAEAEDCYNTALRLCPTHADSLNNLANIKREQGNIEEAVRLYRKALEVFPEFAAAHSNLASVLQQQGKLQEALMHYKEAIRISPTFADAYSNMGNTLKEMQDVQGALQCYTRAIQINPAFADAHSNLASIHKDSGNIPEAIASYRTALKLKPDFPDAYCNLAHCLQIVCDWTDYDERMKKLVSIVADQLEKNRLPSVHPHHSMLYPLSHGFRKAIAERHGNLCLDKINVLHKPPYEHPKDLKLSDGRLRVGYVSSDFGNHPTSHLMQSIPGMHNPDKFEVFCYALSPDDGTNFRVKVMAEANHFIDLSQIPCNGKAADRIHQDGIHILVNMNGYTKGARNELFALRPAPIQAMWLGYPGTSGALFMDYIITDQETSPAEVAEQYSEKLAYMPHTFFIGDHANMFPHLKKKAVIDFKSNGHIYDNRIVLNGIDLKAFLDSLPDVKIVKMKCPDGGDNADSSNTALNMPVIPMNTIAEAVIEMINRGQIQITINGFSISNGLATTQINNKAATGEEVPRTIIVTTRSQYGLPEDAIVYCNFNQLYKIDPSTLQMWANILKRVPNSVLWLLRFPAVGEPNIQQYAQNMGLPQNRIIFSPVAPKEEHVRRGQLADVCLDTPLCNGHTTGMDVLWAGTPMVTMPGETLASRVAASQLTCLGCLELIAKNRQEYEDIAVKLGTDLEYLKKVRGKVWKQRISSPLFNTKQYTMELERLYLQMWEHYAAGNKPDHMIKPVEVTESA
Change,fold enrichment
I11F,0.769 fold
P3L,23.7 fold
V13K,1.43 fold
P7T,1.02 fold
K15R,11.8 fold
T1P,17.6 fold
F14H,26.7 fold
Y5D,0.824 fold
F4S,10.6 fold
A8R,9.62 fold
I11S,0.319 fold
A2I,20.4 fold
Y5I,0.952 fold
A2H,14 fold
A2D,10.2 fold
P7A,1.2 fold
P7D,1.95 fold
F14K,24.2 fold
K15Y,4.62 fold
A8I,17.1 fold
Q12G,1.99 fold
A8N,1.13 fold
Q12V,5.57 fold
P7R,1.37 fold

# Series 4
# Target: Centromere-binding protein 1, full length, His-tagged (CBF1, Saccharomyces cerevisiae, UniProt P17106, residues 1-351)
# UniProt P17106, sequence (whole entry, looked up): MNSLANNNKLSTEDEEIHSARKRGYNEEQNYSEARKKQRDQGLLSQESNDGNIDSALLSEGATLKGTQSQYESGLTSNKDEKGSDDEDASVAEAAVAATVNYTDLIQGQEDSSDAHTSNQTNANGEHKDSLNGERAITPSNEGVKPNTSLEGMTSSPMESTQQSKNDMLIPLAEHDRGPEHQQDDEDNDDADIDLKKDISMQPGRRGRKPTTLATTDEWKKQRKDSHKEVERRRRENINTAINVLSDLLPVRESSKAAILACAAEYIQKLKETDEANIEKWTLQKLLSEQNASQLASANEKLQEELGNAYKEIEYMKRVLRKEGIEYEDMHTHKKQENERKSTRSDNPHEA
# Technique: competition protein-binding microarray
# Form: double-stranded DNA, one strand shown
# Medium: in vitro
# Tested at: 2 µM
# Setting: whole 60-bp probe, lowest competitor level
# With: Pho4 competitor, 0.05 µM
# Direction: higher = stronger binding
# Shared flanks, not repeated: … GTCTTGATTCGCTTGACGCTGCTG
Oligonucleotide,fluorescence intensity [a.u.]
GTTGGACCTTGGTTCCACGGGGTTCATTTCAGGCTG,77.5
TGGGCGGAAATCGCGCAGATGTGGTGTTTGAGTGTT,80.1
CCCAGCAAGCGTTCATCCGTGACGGGTTCAGCAAGG,52.9
TCCAGAAGAAGAAACGACGTGCCGAGGTCCATTCCA,54.5
AAATTACTAAGTTGATCGGTGGGTGACGCCGTATGA,65.8
GCTCTTCATACCCCTCCCGTGGAACTAGTTCGGAAG,68.3
TCACTTTGTCGTCTTCATGTGGGAGTCGGGGCTGTT,73
TTAAGTTTGTCACCGCTCGTGGCCGCTGTACTGTCT,70
TAATCAAGCTTTCGGCACGTGGTGAGCCAAGTTGTG,1570
CTTCATTCAAAGGTCCACGTTCAATTAAGTAACAAG,88.9
CCAGTCCCTCAGCACCACGTGGGACTTAGGGGCAAA,657
GAATGCAAACCCCATCACGTGAAATAGAGAACAATC,2170
CTTTCCCGATCTTGGCCTGTGGGTGTAGCACATTTG,60
ACCAACAATTAAAAGCACGTGATGGGTTCCAGGACT,8450
TTATTTGGTGTTTCTTTCGTGCCGATAGGTTTCGAA,61.6
TCGCCCAATGAGACGCACAATCAAGGCTATGGCTCG,56.6
CATACCCAACCTTGACGTGTGGGTGAAGATATTTGT,79

# Series 5
# Target: CCNB1, cyclin fold, Cln2 fusion (human)
# Technique: yeast growth competition, sequencing
# Medium: yeast
# Setting: weak parent motif
# Reference: not given
# Direction: higher = stronger binding
# Starting sequence: CDKN1B docking peptide (human); PSACRNLFGPVDH
Change,normalised enrichment score
PSNCRNLFGPVDH [A3N],0.725
PSACRNLWGPVDH [F8W],0.394
PSACRNLFSPVDH [G9S],-0.179
PSAIRNLFGPVDH [C4I],0.743
PSACRNLFLPVDH [G9L],0.515
PSACTNLFGPVDH [R5T],0.235
PIACRNLFGPVDH [S2I],-0.0699
HSACRNLFGPVDH [P1H],0.748
PSACPNLFGPVDH [R5P],0.0331
PSACRNLEGPVDH [F8E],0.146
VSACRNLFGPVDH [P1V],0.395
PSACRNLFGPVKH [D12K],0.513
PSACRNTFGPVDH [L7T],-0.156
PSACRNLFGPIDH [V11I],0.783
PSACRNAFGPVDH [L7A],0.0518
PSACRNLFGPVDI [H13I],0.13
PSACRNFFGPVDH [L7F],0.593
PSACRNLFGPVVH [D12V],0.524
PSACRNLIGPVDH [F8I],0.522
PSACRNLFGPVDE [H13E],0.481
PSACRNKFGPVDH [L7K],0.0415

# Series 6
# Target: Sal-like protein 4, full length isoform B (SALL4, Homo sapiens, UniProt Q9UJQ4-2, residues 1-616)
# Technique: universal PBM
# Form: double-stranded DNA, one strand shown
# Medium: in vitro
# Tested at: not given
# Setting: 8-mer, flanks averaged, mean of replicates
# Direction: higher = stronger binding
Oligonucleotide,E-score
AATGCATT,0.305
TAAGATCA,0.165
CATAGCAA,0.0748
CAATTCTG,-0.0267
GGCACGAA,-0.112
ACAATCAT,0.243
CATAAGGC,0.0632
GACGGAGA,-0.0717
AATGAAAG,0.198
TCGATCAA,-0.0702
CACTCATG,0.0224
GACTCACA,-0.0306
GTACGGAC,-0.122
CATCTCCA,-0.0532
GTTGACAA,0.148
GAATTTCA,0.181

# Further values, each from its own experiment
Molecule,target,assay,system,conditions,how to read,measurement,result
"PhoQ, residues 284 288 289 292 302 303 QWGLFV","PhoP, residues 12 14 15 18 19 TPWLV (Escherichia coli, UniProt P23836)","Sort-seq, measured: YFP reporter",E. coli,"PhoQ-PhoP variant library, with: 10 µM Mg2+","reference: high Mg2+ state, higher = stronger signaling",fold induction,0.617

# A few entries again (series 3):
Change,fold enrichment
A8I,17.1 fold
T1P,17.6 fold
Y5D,0.824 fold
I11S,0.319 fold
V13K,1.43 fold
Y5I,0.952 fold
K15R,11.8 fold
P7R,1.37 fold
P7T,1.02 fold
K15Y,4.62 fold
F14H,26.7 fold
A8R,9.62 fold
Q12G,1.99 fold
A2H,14 fold
A2D,10.2 fold
Q12V,5.57 fold
F4S,10.6 fold
A2I,20.4 fold
F14K,24.2 fold
P7A,1.2 fold
P7D,1.95 fold
